# Results from different studies.
# Every numbered part comes from another study and shows a few of its results, in no order.

# Series 1
# Target: PABPC1L2, full length, GST fusion (mouse, UniProt A0ABA7IW68)
# Technique: RNAcompete
# Molecule type: RNA
# Medium: in vitro
# Concentration: 20 nM
# Setting: 7-mer, probes averaged, single round
# Relative to: mean of 7-mers
# Reading: higher = stronger binding
# Target sequence (chain): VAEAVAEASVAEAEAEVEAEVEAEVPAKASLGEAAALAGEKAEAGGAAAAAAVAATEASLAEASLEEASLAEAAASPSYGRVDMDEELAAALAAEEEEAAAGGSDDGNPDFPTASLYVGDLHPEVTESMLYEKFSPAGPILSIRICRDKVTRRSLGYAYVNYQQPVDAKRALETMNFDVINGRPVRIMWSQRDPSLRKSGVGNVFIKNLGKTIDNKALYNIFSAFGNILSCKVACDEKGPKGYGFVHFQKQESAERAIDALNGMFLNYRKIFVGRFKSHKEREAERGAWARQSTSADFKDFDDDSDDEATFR
Sequence,7-mer Z-score
GGGUUCU,-0.17
AGGAAUC,-0.204
GCCCUGC,-0.327
CUUCAUA,-0.199
GAUCACU,-0.175
UAGGCUU,-0.162
GUACUAU,-0.229
CGCUAAC,-0.248
GCAGGCC,-0.0772
AAAUCUG,1.1
GUUUCAU,-0.423
ACGUCUG,-0.324
AUGAAUG,-0.0826
GCUAGUU,-0.36
GUUCAGC,-0.262
CUCCACA,-0.298
AGUAUCC,-0.262

# Series 2
# Target: RNA binding protein fox-1 homolog 2, RRM domain, GST-SBP tag (RBFOX2, Homo sapiens, UniProt O43251-10, residues 100-194)
# Technique: RNA Bind-n-Seq
# Molecule type: RNA
# Medium: in vitro
# Concentration: 365 nM
# Setting: natural RNA segment, single round, ends assumed
# Relative to: no-protein control
# Reading: higher = stronger binding
# Shared flanks, not repeated: GGGAGUUCUACAGUCCGACGAUC … UGGAAUUCUCGGGUGCCAA
Sequence,RBNS enrichment (R)
GGCUGCCCAGGUGGCUGCACUCCGGGGAUCACGUUUCAGUACUGAGUUCCUUCACGCACUUGGUUCACCACCAUCACUCUUGAGUUUUGGACAAAAGAGGUGGGUAUGCC,0.383
GGUGACACACUCCGUGGGGGAGGCUCUUCUCCCCUUCUUUCUCUAGUCUGGGUGGUGAACGGGCUGACACUGCUGUCACUGGUUCUUAGGACCUAAGGUGGUCCUCAUAA,0.457
AAAUUGAAAAUUGCCUUGCAGAUAUUUAGGUACAAUGGAGUUUUCUUUUCCCAAACGGGAAGAACACAGCACACCCGGCUUGGACCCACUGCAAGCUGCAUCGUGCAACC,1.84
CCGCUUUGCCCCAGUGAAGAGACAGCAUUCCUUCCUGUGCAGACCUGAGUGCAGAGUGUGUCCAUCUCGGCGUAUGGUGAAGGUGUCACUGGGUUCUGCAGCACUGGAGU,4.13
UGUAUUGUGGGCAGUUUUGUCAUUGUCCUCAAGUCCUUCGCAGACAGUGCACAGCCUGCUGUCUGCAGUCGGCCAGACCAGGCUCCUCCCCAGCACACUCCCUGUGGGAU,0.391
CACGCUCUCUCUUCUCUCCCAGGCUCUGGCUCAUGCACAUGCAACAGGUGCGUCUGUCUAUAUGUCUGGGUUCUUGUCUUUUGUGGUCUGUUUGUCUUUUCUACCUCUUU,0.733
GUGAUGCUUGUGUUGACCAGAUGUUCCUGAGUCUGGAGCAAGCACCCAGGCCAGAAUAACAGAGCUUUCUUAGUUGGUGAAGACUUAAACAUCUGCCUGAGGUCAGGAGG,0.407
GGUUUGCUGAAACUGACAGAGCCUGGGCUCCAGACCUCUCUCCCUCCUACAGUGCUCUCCCUCCCUGGGCAGAUUGGCAGGACAAGUGGGAGCAGAUGGCCUGCCUUUGG,0.752

# Series 3
# Target: Interferon regulatory factor 5, full length, phosphomimetic (IRF5, Homo sapiens, UniProt Q13568-2, residues 1-514, K96S/S451D/S453D/S456D/S462D)
# Technique: protein-binding microarray
# Molecule type: double-stranded DNA, one strand shown
# Medium: in vitro
# Concentration: 250 nM
# Setting: 60-bp whole probe
# Together with: salmon DNA 0.4 mg/ml
# Relative to: random background probes
# Reading: higher = stronger binding
# Shared flanks, not repeated: GCCTAGCAC … GTCTTGATTCGCTTGACGCTGCTG
Sequence,log fluorescence
TTAAGACTGGGGTATCGGTTAGTGCTA,2.67 z-score
TTACCTCTCACGCATCTGAAAGTGCTA,0.695 z-score
TTAGAACTGAGGATCGATTAGTGCTAG,0.0883 z-score
TCACACATGCATCTCCCACTGTGCTAG,0.138 z-score
GACGAACTGAGATTCGAGACGTGCTAG,-0.333 z-score
GACGGTATCCTGTTCCTGACGTGCTAG,0.0741 z-score
TTAGGACTGTTTCTCCTTTAGTGCTAG,0.729 z-score
GACGGACTGCTTCTCCTCACGTGCTAG,-0.543 z-score
ATGGTCCTCTCTCTATTCAGGTGCTAG,-0.0505 z-score
TTAGGTTTCCTTAGCCTTTAGTGCTAG,0.307 z-score
TAAGGACTGGGGACTGGGTTAGTGCTA,-0.795 z-score
TTTGCTTTCATTTATTTACTGTGCTAG,5.57 z-score
TCACCATTATATTTTAAACTGTGCTAG,0.692 z-score
TTCGGACTGCTTCTCCTTTAGTGCTAG,-0.168 z-score
TCACATCTCTGCTCCTTACTGTGCTAG,0.399 z-score
TCACTCACTCACAGACTCACGTGCTAG,0.242 z-score
GACGGACTGTGTCTCGGGACGTGCTAG,-0.744 z-score
TTACATATCAGACTGGATTAGTGCTAG,0.578 z-score
ATGAGTCTCAATATTAGAGTGTGCTAG,0.239 z-score

# Series 4
# Target: Centromere-binding protein 1, full length, N-terminal tag (CBF1, Saccharomyces cerevisiae, UniProt P17106, residues 1-351)
# Chain of UniProt P17106 (whole entry, looked up): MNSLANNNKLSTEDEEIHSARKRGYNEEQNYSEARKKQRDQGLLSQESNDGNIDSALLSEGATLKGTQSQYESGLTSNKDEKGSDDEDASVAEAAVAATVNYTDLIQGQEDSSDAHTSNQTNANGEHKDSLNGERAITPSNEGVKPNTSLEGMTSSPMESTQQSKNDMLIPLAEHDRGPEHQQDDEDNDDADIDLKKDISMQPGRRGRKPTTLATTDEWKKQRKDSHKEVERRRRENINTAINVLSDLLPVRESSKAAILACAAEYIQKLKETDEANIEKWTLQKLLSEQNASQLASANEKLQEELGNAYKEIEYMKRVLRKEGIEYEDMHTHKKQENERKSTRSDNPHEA
# Technique: protein-binding microarray
# Molecule type: double-stranded DNA, one strand shown
# Medium: in vitro
# Concentration: 0.8 µM
# Setting: whole 60-bp probe, no competitor
# Reading: higher = stronger binding
# Shared flanks, not repeated: … GTCTTGATTCGCTTGACGCTGCTG
Sequence,fluorescence intensity [a.u.]
GAAAAAAAGCTGGGTCACGAAGAAATGATTCTATAG,564
CTATTCACGACACATCACGTGTGTGCTCGTTTATTC,12800
GAAAAAAAAAGACGCACCGTGACTTCAAGAGCTTAG,827
CTAGAGGTTTGGAATGATGTCACCGATGTTAGATTC,534
TGTACGAAGCTATTCCATGTGTCTATAGTAGTTAGG,559
GAAAAGAACAATATTCGGGTGACGCCGCCCCTGTAG,483
GAAATGTGTTCACGTGACGCTATCGACACCCGCTAG,25000
GAAATTCTTCCAAATCTGATCACGTTAGGAAATTAG,2310
GAAAATTGTGAGGCTGATGTTTTCTTCTTTAAATAG,529
CTATACCCACAGCAGTGCATGATGACCCAAAACTTC,559
GAAAACAAGGAACAACGCGTGCTAGCAAGCGGTTAG,532
CCTAACTACTATAATCACGTACGATAGCTTCGTACA,566
CTATCGCACTCTAACCACCTGAAAGGTACTATCTTC,505
CCTAACTACTATAAGCATGTGACATAGCTTCGTACA,3210
GAAATTTGAAGTCATCACGTTTGCCCACATCAATAG,781
CTAGTGAAGGCCATCAAAATCACGTTTATCAATTTC,1470
CTAGGACAAATGAAGCACATGCAAAGAGTTAACTTC,739
CTACTCGTGCATCGTGATGTTATTTGTTACGTATTC,798
GAAACACGTACGATCTACGTGCGGCTGTAGCGTTAG,608

# A few entries again (series 1):
Sequence,7-mer Z-score
AGUAUCC,-0.262
ACGUCUG,-0.324
AAAUCUG,1.1
GAUCACU,-0.175
CGCUAAC,-0.248
GGGUUCU,-0.17
AUGAAUG,-0.0826
GUUCAGC,-0.262
AGGAAUC,-0.204
